Assay results of several laboratories.
Each numbered part is a random draw from the data of one study; scales do not carry over between parts.

Series 1
Target: Replicase polyprotein 1ab, nsp13 helicase (rep, Severe acute respiratory syndrome coronavirus 2, UniProt P0DTD1)
Action: inhibitor
Tested at: 20 µM
Structure (SMILES)	inhibition [%]
C[C@H](/C=C/[C@H](C)C(C)(C)O)[C@H]1CC[C@H]2/C(=C/C=C3C[C@@H](O)C[C@H](O)C3)CCC[C@]12C	6.57
CC1(C)[C@@H](OC(=O)CCC(=O)O)CC[C@]2(C)[C@H]3C(=O)C=C4[C@@H]5C[C@@](C)(C(=O)O)CC[C@]5(C)CC[C@@]4(C)[C@]3(C)CC[C@@H]12	10.5
COc1ccc(C(=O)N2CCN(c3ccc4c(c3)CCC(=O)N4)CC2)cc1OC	3.15
CC(C)(C)C[C@@H]1N[C@@H](C(=O)N[C@H]2CC[C@H](O)CC2)[C@H](c2cccc(Cl)c2F)[C@]12C(=O)Nc1cc(Cl)ccc12	7.54
S=C(S)O[C@@H]1C[C@@H]2C[C@@H]1[C@H]1CCC[C@@H]21	31.2
NC(CO)(CO)CO	9.03
c1cc2c(c(N3CCNCC3)c1)OCCO2	3.11
CCCCCCCCCCC[C@@H](C[C@@H]1OC(=O)[C@H]1CCCCCC)OC(=O)[C@H](CC(C)C)NC=O	4.67
CN[C@@H]1[C@@H](O)[C@@H](O[C@@H]2[C@@H](O)[C@H](O[C@H]3O[C@H](CN)[C@@H](O)[C@H](O)[C@H]3O)[C@@H](N)C[C@H]2NC(=O)[C@@H](O)CN)OC[C@]1(C)O	4.97
CCCCCCCCc1ccc(-c2ccc(C(=O)O)cc2)cc1	5.89
CCCCCCCCCCCCCCCC(=O)OC(C)C	7.38
Fc1ccc(C(OCCN2CCN(CCCc3ccccc3)CC2)c2ccc(F)cc2)cc1	1.83
CCCCNC(=O)[C@@H]1Cc2ccccc2N1C(=O)[C@@H](N)CC	2.74
O=C(NC1CCC1)c1ccc(C#Cc2cccc(F)c2)nc1	5.85
C[C@H]1CN(C[C@H](Cc2ccccc2)C(=O)NCC(=O)O)CC[C@@]1(C)c1cccc(O)c1	-0.49
CCCCCN(C)CCC(O)(P(=O)(O)O)P(=O)(O)O	7.79
Cn1cnc([N+](=O)[O-])c1Sc1ncnc2[nH]cnc12	9.59
Cc1ccc(C(=O)Cn2c3c(sc2=N)CCCC3)cc1	3.63
COc1ccc(OC)c2c(=S)c3ccccc3[nH]c12	24.4

Series 2
Target: TAR DNA-binding protein 43, full length, His tag (TARDBP, Homo sapiens, UniProt Q13148, residues 1-414)
Technique: RNA Bind-n-Seq
Form: RNA
Matrix: in vitro
Tested at: 20 nM
Setting: 6-mer, flanks averaged, single round
With: 150 mM LiCl
Reference: input library
Direction: higher = stronger binding
Strand	6-mer enrichment (R)
AGUUAU	0.984
GGGUUG	1.28
UGAGUC	0.962
GUUGAG	1.27
GGUUUA	1.09
CUGGUU	0.99
GCUGCA	0.953
UGUGUG	3.17

Series 3
Target: Sal-like protein 4, full length isoform B (SALL4, Homo sapiens, UniProt Q9UJQ4-2, residues 1-616)
Technique: universal PBM
Form: double-stranded DNA, one strand shown
Matrix: in vitro
Tested at: not given
Setting: 8-mer, flanks averaged, mean of replicates
Direction: higher = stronger binding
Residues (chain): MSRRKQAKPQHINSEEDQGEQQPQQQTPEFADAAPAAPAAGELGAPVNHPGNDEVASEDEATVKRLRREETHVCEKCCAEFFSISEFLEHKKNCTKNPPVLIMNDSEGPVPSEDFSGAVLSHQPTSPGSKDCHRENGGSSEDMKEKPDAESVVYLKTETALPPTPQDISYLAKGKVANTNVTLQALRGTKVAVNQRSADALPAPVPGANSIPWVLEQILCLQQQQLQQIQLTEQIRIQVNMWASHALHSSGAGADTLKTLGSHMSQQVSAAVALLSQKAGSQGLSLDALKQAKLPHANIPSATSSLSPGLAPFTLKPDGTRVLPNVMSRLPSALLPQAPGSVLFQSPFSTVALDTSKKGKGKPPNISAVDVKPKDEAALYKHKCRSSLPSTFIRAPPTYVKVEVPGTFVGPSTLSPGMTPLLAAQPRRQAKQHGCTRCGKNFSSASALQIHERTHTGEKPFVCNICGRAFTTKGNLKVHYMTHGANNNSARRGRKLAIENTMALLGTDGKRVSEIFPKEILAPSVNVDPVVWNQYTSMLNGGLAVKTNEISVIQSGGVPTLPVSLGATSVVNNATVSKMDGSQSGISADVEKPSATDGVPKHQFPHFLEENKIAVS
Strand	E-score
GTAACCTA	0.258
ATACGTGC	-0.00069
CGTGTTAC	0.0433
TGCACGCA	-0.139
AGCAAGTA	0.134
AACCAAAC	-0.121
ACCGATTA	0.0821
ACGTCCGA	-0.153

Series 4
Cell line: HEK-293T/ACE2
Tested at: concentration not given
Time: 16 (unit not given)
Reference: vehicle
Compound	viability [%]
CCCCC1=NC2(CCCC2)C(=O)N1Cc1ccc(-c2ccccc2-c2nnn[nH]2)cc1	103
CN1CCCC(n2nc(Cc3ccc(Cl)cc3)c3ccccc3c2=O)CC1 (stereo not drawn)	99.9
c1ccc(CN(CC2=NCCN2)c2ccccc2)cc1	102
CC=CC(=O)N(CC)c1ccccc1C (mixture of isomers)	101
NCCCC(N)(C(=O)O)C(F)F (stereo not drawn)	106

Series 5
Target: Replicase polyprotein 1ab, main protease (rep, Severe acute respiratory syndrome coronavirus 2, UniProt P0DTD1)
Observed: enzyme activity
Action: inhibitor
Tested at: 20 µM
Setting: hit confirmation
SMILES	inhibition [%]
NC(=S)N/N=C/c1coc2ccccc2c1=O	51.8
C=C1C(=O)O[C@@H]2[C@H]3O[C@]3(C)CC/C=C(\C)CC[C@@H]12	1.5
CO/N=C(\C(=O)N[C@@H]1C(=O)N2C(C(=O)O)=C(CSC(=O)c3ccco3)CS[C@H]12)c1csc(N)n1	73.1
Cc1ccc(S(=O)(=O)c2ccc([N+](=O)[O-])o2)cc1	59
COc1cc(-c2ccc(/N=N/c3ccc4c(S(=O)(=O)O)cc(S(=O)(=O)O)c(N)c4c3O)c(OC)c2)ccc1/N=N/c1ccc2c(S(=O)(=O)O)cc(S(=O)(=O)O)c(N)c2c1O	94.5

Excerpt of the above (series 2):
Strand	6-mer enrichment (R)
GGGUUG	1.28
UGAGUC	0.962
GUUGAG	1.27
GGUUUA	1.09
CUGGUU	0.99
